# Experimental data pooled from the literature.
# Numbered parts are unrelated; each lists some results of a single study.

# Sample 1 — method: aptamer microarray, sandwich; molecule type: DNA with 2'F-ANA; medium: in vitro; concentration: 200 nM; added: Cy3 exosite-II aptamer, 400 nM; reading: higher = stronger binding; oligonucleotide: GGTTGGTGTGGTTGG
# Target: Prothrombin, mature alpha-thrombin (F2, Homo sapiens, UniProt P00734)
# Notes: whole 15-mer aptamer, many near background
Modification,mean fluorescence intensity
2'F-ANA at 2 5 10 11 12 14 15,54.3 a.u.
2'F-ANA at 5 6 7 8 10 12 14 15,52.6 a.u.
2'F-ANA at 1 3 4 5 6 9 10,45.8 a.u.
2'F-ANA at 1 2 4 6 9 12 13 15,157 a.u.
2'F-ANA at 8 10 12 14,115 a.u.
2'F-ANA at 1 4 8 10 11 13 14,51.1 a.u.
2'F-ANA at 2 3 5 8 9 10 11 12 15,69 a.u.
2'F-ANA at 2 3 5 6 7 8 10 14 15,50.6 a.u.
2'F-ANA at 1 5 7 9 10 12 14,44.8 a.u.
2'F-ANA at 1 2 3 5 7 8 10 12,52.4 a.u.
2'F-ANA at 1 3 4 5 8 14,44.5 a.u.
2'F-ANA at 1 2 3 4 7 10 11 13 15,52.9 a.u.
2'F-ANA at 1 3 4 7 10 11,63 a.u.
2'F-ANA at 1 2 4 7 10 11 12 13 14 15,47.8 a.u.
2'F-ANA at 1 2 3 13 14,65 a.u.
2'F-ANA at 2 3 4 5 7 11 12 13,111 a.u.
2'F-ANA at 2 6 7 8 9 10 12 13 14 15,90.4 a.u.
2'F-ANA at 1 2 7 9 11 12 13 14,53.9 a.u.

# Sample 2 — method: RNA Bind-n-Seq; molecule type: RNA; medium: in vitro; concentration: 365 nM; reference: no-protein control; reading: higher = stronger binding
# Target: RNA binding protein fox-1 homolog 2, RRM domain, GST-SBP tag (RBFOX2, Homo sapiens, UniProt O43251-10, residues 100-194)
# Notes: natural RNA segment, single round, ends assumed
# Shared flanks, not repeated: GGGAGUUCUACAGUCCGACGAUC … UGGAAUUCUCGGGUGCCAA
# Construct (chain): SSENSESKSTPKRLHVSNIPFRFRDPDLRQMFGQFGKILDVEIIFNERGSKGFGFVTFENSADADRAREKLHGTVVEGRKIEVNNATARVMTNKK
Oligonucleotide,RBNS enrichment (R)
ACCCUGGUUUUUUUCCUGUGCCCACUCCGGCUUGUCCUCAUCUCUACCCAUCCCCUGAUGCCCAGGUCACCGGGAGGGCUGCUGGGAGCCUCUCCUGUCCCCGCCGGGCA,0.474
UUGCAAAAAAACAAAACCUGAAGUUGGUUUAUUGAAAGAAUUAUAAGGAUAGCUUCUAGGGAUAUUAGUAAUAGAUUGCCAUGAUCCUGAAGCCUCUUCUCAGAACACUG,0.382
GCUGUACAAGUAUAGGCAGAGUUAUUUUCCUGUUUACAUUUUUUUUUUGUUUUGGGGAAAAAAUUGGUAGGUGUCUAAUUACUGUUUACUUCAUUGUUAUAUUGCAGUAA,0.877
ACCCCAUAUUGGAAAAUGAAUGUCCUUUAGUAUUCCUGAAGCUAAAGCUUGGGUGUCUCCUCCCAGCUCUUGUUACAGUGUUUCUGACUGCUUCACCCUUCACAGAUUUA,0.539
GACCUUCUAGGGUCUGGCUGGGGUCAUCCUAGGUAUGGGUGACCGUCCCUGAGACAUAAGCGAGGUAGAUUCAGCCAUCCUCACCCUCAGACUUGAGGUCCCCACCCAGG,0.246
UACAGUGAUAUUGGUCCAGUUCCUCCUGACUCUUCACUCUACCACCCAAAAGUCAAUGUAGACCUACGAAACGGUCAGGUGAUGGGCUAGGGACGUAUCUUCAAACUCCA,0.31
AUUAGCAGAACGACAGCCCCUUCCUCCUCCUCCCUCCUUCCCAUCCCUACUCAUUAGCUCCCUGCUCCUGGGAUGCUUCCCAAGCAGCCCAGGCCUCUAGCCUCCAUGGC,0.538
ACUACAGCAGGUGGAGAUGGUGCAGGGCGGGGUGAUGAGGUUAUAAAACUAUGGAACCUCCUCUGGCCCCACCCCCUUAUCUUUCCCUACUGUUCAUUGUAAAGGGUCAG,0.226
AUGUCCUCAGUAACUCAUACCUGGCUUUGAAUUAGGAGUGGCUAGGAGGGUUCUAGUCUGUGCAAACAUUAAUAAAAAUUAUUUUGAAUUUUAGGAUUUUAAAAUGGUUG,0.914
GUUCAGGCACUUCCCACCACCUUUGUGCCCCCUCUGGUUGUACUUUCCAGGUCCCUGCUUCUCACCUCCUCCAUCUUGCUUCGCCUUUCAAUAAACAGUUGAUGCAUACC,0.582
UAGCUUUGUGCCUGGACCCAGAGAGUGUGGGACUCCCCGCUUCAUCCCCACCGUCCCACUCCACAGCCUUCCCGAAACAUUCCCUGGCAAACAAAGGAACACUAGGAGAA,0.431
UUCUGAUGAGCCUGUAGAGAAGCCUAGAGAGCCCCGGGCCAUCUGAUGAUGUCACCAGUGCUGCCUCAGAUGAUACAGAGACAGGGAGUUUCAGGUGAACUUCUUCAGCA,0.491

# Sample 3 — method: universal PBM; molecule type: double-stranded DNA, one strand shown; medium: in vitro; concentration: not given; reading: higher = stronger binding
# Target: Sal-like protein 4, full length isoform B (SALL4, Homo sapiens, UniProt Q9UJQ4-2, residues 1-616)
# Notes: 8-mer, flanks averaged, mean of replicates
Oligonucleotide,E-score
TGCTTACA,0.129
CAGCGTCA,-0.194
ATGATGGA,0.132
CACCTCGG,-0.207
AAATTACG,0.202
AGGCCCCG,-0.386
CTCACTAA,-0.111
CCCTTGTC,-0.028
CTGACCTA,-0.0325
ACCCCCAC,-0.199
ACTTGGGC,-0.118
AGTTCGAG,-0.0392
AATAACGG,0.296
ACAGTGTA,0.147
CGATGGTA,-0.00189
CATTGGAG,-0.00684
AACGACGA,0.0103
CTGGAGAC,-0.268
AGTTTCAT,0.247
AGGGTAAC,-0.0261
CCCTGCGA,-0.139
CAGCCGAG,-0.22
GAAGCCAC,-0.0741
GGGGACAA,-0.178
TTCTTAAA,0.122

# Sample 4 — method: protein-binding microarray; molecule type: double-stranded DNA, one strand shown; medium: in vitro; concentration: 2540 nM top; notes: 60-bp whole probe; added: salmon DNA 0.4 mg/ml; reference: random background probes; reading: higher = stronger binding; shared flanks, not repeated: GCCTAGCAC … GTCTTGATTCGCTTGACGCTGCTG
# Target: Interferon regulatory factor 3, full length, phosphomimetic (IRF3, Homo sapiens, UniProt Q14653, residues 1-427, S386D/S396D/S398D/S402D/T404D/S405D)
# Sequence of UniProt Q14653 (whole entry, unmodified, looked up): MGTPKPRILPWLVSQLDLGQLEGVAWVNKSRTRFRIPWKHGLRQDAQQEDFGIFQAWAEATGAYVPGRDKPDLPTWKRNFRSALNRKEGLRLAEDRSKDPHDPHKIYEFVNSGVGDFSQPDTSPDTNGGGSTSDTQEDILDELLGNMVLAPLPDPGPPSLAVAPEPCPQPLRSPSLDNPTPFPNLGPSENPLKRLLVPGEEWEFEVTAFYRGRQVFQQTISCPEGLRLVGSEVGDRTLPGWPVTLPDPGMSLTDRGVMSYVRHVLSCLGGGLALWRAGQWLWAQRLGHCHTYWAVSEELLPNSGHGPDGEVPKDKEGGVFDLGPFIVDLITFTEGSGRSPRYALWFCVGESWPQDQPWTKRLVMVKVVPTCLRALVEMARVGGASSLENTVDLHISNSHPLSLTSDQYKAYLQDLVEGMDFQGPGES
Oligonucleotide,fitted relative affinity [z-score]
GACGGTTTCTGGTATCGGGACGTGCTA,2.77
GACGATTTCCTTCTCCTGACGTGCTAG,6.01
TCAAAAATCTCAATGGGACTGTGCTAG,-0.397
TTAGGTTTCCTGCTGCTTTAGTGCTAG,2.41
TTTTCACTTTCTTTAACTCAGTGCTAG,4.38
TTTAGAAAGATTAGGGGTGCGTGCTAG,-0.475
TTAGAACTGGGGTTTCGCTTAGTGCTA,0.95
GACGGTCTCGGACTGGTGACGTGCTAG,-0.0887
TTAGGTCTCGGTTTCGGTTTGTGCTAG,7.12
GACGGTCTCGGACTGTGGACGTGCTAG,0.045
AGGTTTCTATATTTGCTTCAGTGCTAG,3.23
GGCGAACTGAGTTTCGAGACGTGCTAG,0.965
GATGGTTTCCTTATCCTGACGTGCTAG,7.95
GACGGTTTCCGGTATCGGGACGTGCTA,4.08
GACGGACTGGTTTTCGGGACGTGCTAG,0.337
TTAGGTCTGGGGACTGGGTTAGTGCTA,-1.06
TCAATTCTCTTTTCACTACTGTGCTAG,2.43
GACGGTATCGGTCTCGGGAAGTGCTAG,4.57
TTAGAACTGGGGACTGGATCAGTGCTA,-0.799
TTAGGTTTCGGTTTCGGCTAGTGCTAG,11.1
TTTGATTTCAGTTTCGATTAGTGCTAG,5.97
CCCCAACTCGCCTTTTTTGTTGTGCTA,1.5
TTAGGACTGGGGTCTCGGTTAGTGCTA,-0.939

# Sample 5 — method: protein binding microarray; molecule type: double-stranded DNA, one strand shown; medium: in vitro; concentration: not given; reference: not given; reading: higher = stronger binding
# Target: Histone acetyltransferase KAT6A, winged helix 2, GST fusion (KAT6A, Homo sapiens, UniProt Q92794, residues 85-181)
# Notes: 8-mer, flanks averaged, mean of 2 arrays, mostly near background
# Target sequence (chain): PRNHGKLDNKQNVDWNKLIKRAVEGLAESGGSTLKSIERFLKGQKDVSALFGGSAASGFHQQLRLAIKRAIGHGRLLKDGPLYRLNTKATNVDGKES
Oligonucleotide,E-score
ACTTAAAG,-0.25
GTGCGAAA,0.00792
ATGAAACC,0.101
AACGTATT,-0.0693
ATGACTCC,-0.088
CCGTGGGC,0.113
ATGTAAAC,-0.105
CGGTTCCC,0.0838
TTAGCAAA,0.0643
AATGAAGG,-0.00442
CTAATCGA,0.0691
CAAGCACC,-0.15
CCGCAGAG,0.00122
ATCTAGCG,0.0234
AGTAACCC,-0.0908
ATTCTCTG,-0.0567
AGTGACCG,0.0339
AGACGGAA,-0.0644

# Some of these lines once more (sample 1):
Modification,mean fluorescence intensity
2'F-ANA at 1 3 4 7 10 11,63 a.u.
2'F-ANA at 1 2 3 4 7 10 11 13 15,52.9 a.u.
2'F-ANA at 2 6 7 8 9 10 12 13 14 15,90.4 a.u.
2'F-ANA at 1 4 8 10 11 13 14,51.1 a.u.
2'F-ANA at 1 3 4 5 8 14,44.5 a.u.
2'F-ANA at 2 5 10 11 12 14 15,54.3 a.u.
2'F-ANA at 2 3 4 5 7 11 12 13,111 a.u.
2'F-ANA at 1 2 4 7 10 11 12 13 14 15,47.8 a.u.
